Measurements from different studies.
Each numbered part is a random draw from the data of one study; scales do not carry over between parts. Substitutions count along the parent as printed.

Series 1
Target: MAFK, bZIP domain (human)
Technique: DHFR protein complementation
Sample: yeast
Setting: single substitutions, most at no-binding floor
Baseline: wild-type JUN-FOS pair
Direction: higher = stronger binding
Starting sequence: JUN, bZIP domain (human); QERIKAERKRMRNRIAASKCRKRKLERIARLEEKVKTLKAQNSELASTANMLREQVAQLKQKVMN; partner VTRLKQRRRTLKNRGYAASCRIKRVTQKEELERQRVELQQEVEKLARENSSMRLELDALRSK
Substitution | binding fitness
L38Q | -1.48 natural log
E33N | -1.46 natural log
R53M | -1.57 natural log
Q41S | -1.53 natural log
M51A | -1.51 natural log
A57L | -1.53 natural log
A29W | -1.39 natural log
K34D | -1.47 natural log
A29Q | -1.44 natural log
K34N | -1.51 natural log
S47D | -1.46 natural log
I28K | -1.51 natural log
L38G | -1.44 natural log

Series 2
Molecule: SAPSAPIRLPHTAALS
Effect on: yeast growth
Technique: competitive growth deep sequencing
Molecule type: peptide
Organism: Saccharomyces cerevisiae
Setting: peptide tiling library
Direction: direction not given
target | enrichment score
human cyclin E2-Cln2 fusion | 0.937
human cyclin F-Cln2 fusion | 0.171
human cyclin E1-Cln2 fusion | 0.922
human cyclin B1-Cln2 fusion | -0.208
human cyclin D1-Cln2 fusion | 1.84

Series 3
Target: RING finger protein unkempt homolog, zinc fingers 1-6, GST-SBP tag (UNK, Homo sapiens, UniProt Q9C0B0, residues 30-357)
UniProt Q9C0B0, sequence (30-357, looked up): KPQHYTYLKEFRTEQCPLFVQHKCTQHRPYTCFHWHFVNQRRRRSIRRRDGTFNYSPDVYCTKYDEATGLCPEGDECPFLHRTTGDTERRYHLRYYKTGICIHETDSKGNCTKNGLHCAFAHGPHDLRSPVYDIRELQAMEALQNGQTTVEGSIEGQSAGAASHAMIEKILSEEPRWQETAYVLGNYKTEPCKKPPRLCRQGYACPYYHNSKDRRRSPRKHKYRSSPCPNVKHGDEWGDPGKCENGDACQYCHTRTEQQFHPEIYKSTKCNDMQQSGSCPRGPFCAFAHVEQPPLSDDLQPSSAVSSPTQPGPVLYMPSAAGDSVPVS
Technique: RNA Bind-n-Seq
Molecule type: RNA
Sample: in vitro
Concentration: not given
Setting: RNA with constant flanks, human-mouse chimeric sites, ends assumed
Baseline: input RNA pool
Direction: higher = stronger binding
Sequence | bound/input enrichment
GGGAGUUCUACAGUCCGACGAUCAGCACAACCCCAGCAAAGCUCAGGAACCCUUGUACAAGUGAACAAAACUGCACCAGCCCAUUUAGCUACAAAAAUGUGCUUAGUCUUACUGACAGAGGAGAGUUUUUCAAUGAACUUGUUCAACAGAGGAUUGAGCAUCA | 1.1 ratio
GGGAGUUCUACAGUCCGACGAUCGCUCUUGGGAAUGUAAUCAGCGCCUUGGGAGACAAGAGCAAGAGAGCCACCCAUGUCCCUUACAGAGACUCUAAGCUGACAAGACUCCUACAGGAUUCCCUUGGGGGUAACAGCCAAACCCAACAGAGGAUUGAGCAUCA | 0.125 ratio
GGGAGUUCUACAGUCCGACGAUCGAAUCCUACUCAGGCGGAUUUUGCAACCUGAAUGCAACAGCAGCAGCAUCUUAGUCACAGUAGGGUAGUUUUGGGGCUCUGUGGCCAGGGUUUUAUUCACAUGCAGGUUUUGAAAAUGUACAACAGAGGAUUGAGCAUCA | 0.933 ratio
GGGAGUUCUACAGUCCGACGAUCCUCAUGGCUGCAGAAACAGGAAGUGGAAAAACUGGUGCAUUUAGUAUUCCCGUUAUCCAGAUAGUGUAUGAAACUCUGAAAGACCAACAGGAAGGCAAGAAAGGGAAAACAACUAUUAAACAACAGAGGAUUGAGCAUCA | 0.76 ratio
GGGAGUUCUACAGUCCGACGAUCGGUGGGGGGUUGUCAUUCGUUUGAGCUGCUGAUUUUCAUGAGUCGCCUUCAAAACUCUCGUGUAGGGUUGACAAUGUGGGGGGGUGGGGGAUCCAGCUUAUUCUUUUAUUUUCAAGUCCACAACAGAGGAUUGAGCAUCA | 0.705 ratio
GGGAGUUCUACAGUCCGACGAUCGUGUCCUGCUUUCAACUUAAAUCACUGAGGCAUCUCUACUGUUCUGUGAGCAUCAGGAUUUUAGUGCUGUGUCACCACAUGAGAGUUGUUAAGCAGCCUUUCUGUGGAGGGUGGGAAUGACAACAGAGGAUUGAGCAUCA | 0.174 ratio
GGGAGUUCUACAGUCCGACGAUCGUGACUGGUGUUAAGAUUUCCCCUCAGCAAAGAAGUGCAGUAGUCACCAUAAUUCCAUCUGUGGUGAGUGCCAGUCAGAUUGUGGAGCUGGUCCCAGAACUCAGUUUAGACAUGGGAACUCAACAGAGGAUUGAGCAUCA | 0.3 ratio
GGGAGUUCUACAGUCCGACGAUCCUCAUGGCUGCAGAAACAGGAAGUGGCAAAACUGGUGCAUUUAGUAUUCCCGUUAUCCAGAUAGUUUAUGAAACUCUGAAAGACCAACAGGAAGGAAAGAAAGGGAAAACAACUAUUAAACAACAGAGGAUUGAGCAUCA | 0.764 ratio
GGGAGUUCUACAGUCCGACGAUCCCUCCCCCGGGCCACCCACCCCUCCCGGCUCCCCGCCGAGAUCCAGGUUUCUUCUUAUUUCAUAGCAAAUAAGAAAAAUGUUCUACGCACAUUUUGUUCUCAGUAAACGAGGGCCUCUGGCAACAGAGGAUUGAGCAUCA | 1.32 ratio
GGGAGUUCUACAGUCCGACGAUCAAUUUCCUGUCAUACUUUUUAGACAUUCACAUCAGACGCCUUACUACCCUGGCCACAUUCUAGGUUUGUGUUAUUUCUCAGCUAUGGAUAUGAUCAAAUGAGAACACUGCUUAACUAAUGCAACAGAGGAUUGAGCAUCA | 0.616 ratio
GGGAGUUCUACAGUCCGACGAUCAGAUUCCCCCUCCUGAGACCUCCUCCGAAGUUGGAGUCUCUUACAGAUGGUUCAUCUCCUGUUAGCGUUUUAGUUUGGACCACACAACCUUGGACAAUUCCCGCCAACCAGGCAAUUUGCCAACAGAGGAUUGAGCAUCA | 2.98 ratio

Series 4
Target: Sal-like protein 4, full length isoform B (SALL4, Homo sapiens, UniProt Q9UJQ4-2, residues 1-616)
Technique: universal PBM
Molecule type: double-stranded DNA, one strand shown
Sample: in vitro
Concentration: not given
Setting: 8-mer, flanks averaged, mean of replicates
Direction: higher = stronger binding
Sequence | E-score
ACTGGCAC | -0.2
GATGAGCC | -0.253
CCATAGTA | 0.0402
CTACATCC | 0.0537
GGGTTAGA | -0.141
CAGACCGG | -0.4
CAATAACC | 0.261
ATCCTAGA | 0.0719
ACGACGTG | 0.0217
CGGGGTCA | -0.223
AGTACAAG | 0.029
GGTGTCAA | -0.0411
GATACTAA | 0.116
ATCCGGTC | -0.291
ATTCCCTG | -0.0473
AAAGATGT | 0.201
ACGCTTAC | -0.0776
CGGGCCAC | -0.304
CGGCCACG | -0.288
AGCAGCAG | -0.161
ACTTATGG | 0.215
GCCGGCAC | -0.404
ACGGGGCC | -0.316
CTGCAGGC | -0.295
ACGCAAAC | -0.151

Series 5
Target: RNA binding protein fox-1 homolog 2, RRM domain, GST-SBP tag (RBFOX2, Homo sapiens, UniProt O43251-10, residues 100-194)
Technique: RNA Bind-n-Seq
Molecule type: RNA
Sample: in vitro
Concentration: 365 nM
Setting: natural RNA segment, single round, ends assumed
Baseline: no-protein control
Direction: higher = stronger binding
Construct (chain): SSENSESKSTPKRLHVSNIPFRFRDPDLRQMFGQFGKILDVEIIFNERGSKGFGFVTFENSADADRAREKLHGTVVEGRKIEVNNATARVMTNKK
Sequence | RBNS enrichment (R)
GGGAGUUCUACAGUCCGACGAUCACGGAGAGCUCCCUUCUGCAGGACUAAGCAGAUGCGUGUCUUUCCCACCCGUGACUGUAAGAAUGCUCUCUGGGAGGACUUCCACCGGGGCAGAGCAGGCUGCCCAGCCGUGGAAUUCUCGGGUGCCAA | 1.19
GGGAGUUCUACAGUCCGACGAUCACCUUUUUGCCCAUCACAUUAACUUUCCUGGAAUAUUGUGCUGCACAGGUAGACCUGAAUCUGCCCAGCUUGUUGACAGCUCUUGUGUAUACUGUGUUGAAGCCAGACAGUGGAAUUCUCGGGUGCCAA | 1.14
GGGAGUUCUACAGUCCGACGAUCAUUCCCAUGGUUUUAUGACAGACAAGCCUUGUCUUCUAUUCAUAUAGAUAUGCACCUUUUUCUACAUGUAUGGCCUUUACUUACUACACAGCAAGUAGGCCUCAAAGUAAUGGAAUUCUCGGGUGCCAA | 0.549
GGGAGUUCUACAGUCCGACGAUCUCUUGAAAACGGUACAUAUUUUAGUAUUUGUGCAGAAAAACAAGUCCUAAAGUAUUUGUUUUUAUUUGUACCAUCCACUUGUGCCUUACUGUAUCCUGUGUCAUGUCCAAUGGAAUUCUCGGGUGCCAA | 0.375
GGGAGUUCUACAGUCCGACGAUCCUACCUGGCCUGUUGGAGGAAAGGUUUGCCAAUCUCUGUUUUAUACCAUUAACUAUGAGAUUAACAAAAACUUUUACCUUUGUGCAGAAGGUUAAAAAAAAAAAAACAUGUGGAAUUCUCGGGUGCCAA | 0.452
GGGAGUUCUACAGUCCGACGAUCGGGAAAGCUAGAAACACUAGGUUCUUCCUGUACAUACGUGUAUAUAUGUGAACAGUGAGAUGGCCGUUUCUGACUUGUAGAGAAAUUUUAAUAAACCUGGUUUCGUAAAUUGGAAUUCUCGGGUGCCAA | 0.312
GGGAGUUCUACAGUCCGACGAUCAGCUCACAGAGCCGCGUCCCUCGAAGCCGUGAGCUACGCCAUUGAUUCUUUAAAAGCCAAGGUGCCCAUAUGGAAAAAGGGCUUGACUUAAACCUGUGAUAAGAUGUCUGUGGAAUUCUCGGGUGCCAA | 0.435
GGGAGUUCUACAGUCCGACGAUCCAGGGAGUGGCAAAGCACUGACUCCUGAGCUCCCUUCCUCACUAGGACUCCAGUGUGACCCUGCACUGAGAGGACCAAAGCGUCAUUGCAGUCUUCUCUCCACCCUGUACUGGAAUUCUCGGGUGCCAA | 0.414
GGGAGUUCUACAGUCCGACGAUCUGUAUAGUAGAAAAUAAGCUUUGUGCAUCUGUAUUUGAGAUAUGUUAAUGACGUGGAGUAAAGUCAGCUGUAAGACUCUGGAGGCAAACAAGUUGUAUAUGGUUCAUAUGUGGAAUUCUCGGGUGCCAA | 1.18
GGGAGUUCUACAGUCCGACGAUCGGCUAUAGGAUAUAAGCAUUAGGGACCCUGAGGCUUUAAGUGGUUUCUAUUUCUUCUUAGUUAUUAUGUGCCACCUUCUUAGUUAUUAUGUGCCACCUCCCCUAUGAGUGUGGAAUUCUCGGGUGCCAA | 0.389
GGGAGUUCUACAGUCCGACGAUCUUGUGUUUACUCUUUGUAAAGCAAAGAGGUCUGUAUUUACACACCUUUACCUAGGGGUAUGUUUUCUGCCCUGCUUCCCAGUCCUCAUGAUUAUCUUUAAUACCCUAGGCUGGAAUUCUCGGGUGCCAA | 0.251
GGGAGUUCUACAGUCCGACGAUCCAUCUGUGUCUGACCAAAUCAGGGGACUUCCCCACCUGUGGUGGGAGGCACAGCUUAGAUGUUUUGUACACCUGGUCUUUUCUAGAAAUCCCUGCUUGGAGCUGCAGAAGUGGAAUUCUCGGGUGCCAA | 0.276

Further values, each from its own experiment
Substance | target | test | test system | conditions | scale | measurement | value
PhoQ, residues 284 288 289 292 302 303 SNGLAW | PhoP, residues 12 14 15 18 19 SYFRT (Escherichia coli, UniProt P23836) | Sort-seq, refers to: YFP reporter | E. coli | PhoQ-PhoP variant library, with: 10 µM Mg2+ | baseline: high Mg2+ state, higher = stronger signaling | fold induction | 13.3

For quick reference, copied from above (series 5):
Sequence | RBNS enrichment (R)
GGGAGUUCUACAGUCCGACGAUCUGUAUAGUAGAAAAUAAGCUUUGUGCAUCUGUAUUUGAGAUAUGUUAAUGACGUGGAGUAAAGUCAGCUGUAAGACUCUGGAGGCAAACAAGUUGUAUAUGGUUCAUAUGUGGAAUUCUCGGGUGCCAA | 1.18
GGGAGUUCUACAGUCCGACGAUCCUACCUGGCCUGUUGGAGGAAAGGUUUGCCAAUCUCUGUUUUAUACCAUUAACUAUGAGAUUAACAAAAACUUUUACCUUUGUGCAGAAGGUUAAAAAAAAAAAAACAUGUGGAAUUCUCGGGUGCCAA | 0.452
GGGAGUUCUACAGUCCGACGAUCCAGGGAGUGGCAAAGCACUGACUCCUGAGCUCCCUUCCUCACUAGGACUCCAGUGUGACCCUGCACUGAGAGGACCAAAGCGUCAUUGCAGUCUUCUCUCCACCCUGUACUGGAAUUCUCGGGUGCCAA | 0.414
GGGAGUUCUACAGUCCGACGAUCAUUCCCAUGGUUUUAUGACAGACAAGCCUUGUCUUCUAUUCAUAUAGAUAUGCACCUUUUUCUACAUGUAUGGCCUUUACUUACUACACAGCAAGUAGGCCUCAAAGUAAUGGAAUUCUCGGGUGCCAA | 0.549
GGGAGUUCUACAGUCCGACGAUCAGCUCACAGAGCCGCGUCCCUCGAAGCCGUGAGCUACGCCAUUGAUUCUUUAAAAGCCAAGGUGCCCAUAUGGAAAAAGGGCUUGACUUAAACCUGUGAUAAGAUGUCUGUGGAAUUCUCGGGUGCCAA | 0.435
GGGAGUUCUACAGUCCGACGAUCACGGAGAGCUCCCUUCUGCAGGACUAAGCAGAUGCGUGUCUUUCCCACCCGUGACUGUAAGAAUGCUCUCUGGGAGGACUUCCACCGGGGCAGAGCAGGCUGCCCAGCCGUGGAAUUCUCGGGUGCCAA | 1.19
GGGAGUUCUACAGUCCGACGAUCUUGUGUUUACUCUUUGUAAAGCAAAGAGGUCUGUAUUUACACACCUUUACCUAGGGGUAUGUUUUCUGCCCUGCUUCCCAGUCCUCAUGAUUAUCUUUAAUACCCUAGGCUGGAAUUCUCGGGUGCCAA | 0.251
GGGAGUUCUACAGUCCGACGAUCGGGAAAGCUAGAAACACUAGGUUCUUCCUGUACAUACGUGUAUAUAUGUGAACAGUGAGAUGGCCGUUUCUGACUUGUAGAGAAAUUUUAAUAAACCUGGUUUCGUAAAUUGGAAUUCUCGGGUGCCAA | 0.312
